Experimental data of several laboratories.
“And” joins repeats or separate records; there may be more than shown. ± gives the spread as reported.
Chymotrypsinogen A: Chymotrypsinogen A (Bos taurus, UniProt P00766)
UniProt P05067, sequence (whole entry, looked up): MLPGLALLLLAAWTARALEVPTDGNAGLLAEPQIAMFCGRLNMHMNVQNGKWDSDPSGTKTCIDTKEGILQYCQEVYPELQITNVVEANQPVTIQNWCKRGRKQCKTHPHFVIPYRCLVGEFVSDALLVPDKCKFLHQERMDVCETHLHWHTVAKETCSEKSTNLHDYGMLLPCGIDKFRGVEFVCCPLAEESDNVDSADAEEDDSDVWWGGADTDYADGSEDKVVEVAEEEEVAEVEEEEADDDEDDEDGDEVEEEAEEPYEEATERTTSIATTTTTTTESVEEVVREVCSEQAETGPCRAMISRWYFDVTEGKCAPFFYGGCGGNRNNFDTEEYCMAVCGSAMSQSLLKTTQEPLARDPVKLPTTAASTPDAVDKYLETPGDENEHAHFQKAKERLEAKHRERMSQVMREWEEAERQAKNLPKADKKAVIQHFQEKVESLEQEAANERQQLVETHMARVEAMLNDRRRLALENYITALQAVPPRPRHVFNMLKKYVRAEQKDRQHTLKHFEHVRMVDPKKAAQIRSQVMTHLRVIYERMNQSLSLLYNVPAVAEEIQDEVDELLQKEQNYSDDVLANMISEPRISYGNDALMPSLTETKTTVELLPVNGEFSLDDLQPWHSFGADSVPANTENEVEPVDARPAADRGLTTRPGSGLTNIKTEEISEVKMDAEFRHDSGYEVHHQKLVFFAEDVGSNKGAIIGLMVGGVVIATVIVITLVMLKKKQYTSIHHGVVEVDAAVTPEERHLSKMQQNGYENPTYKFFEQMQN
UniProt P35368, sequence (whole entry, looked up): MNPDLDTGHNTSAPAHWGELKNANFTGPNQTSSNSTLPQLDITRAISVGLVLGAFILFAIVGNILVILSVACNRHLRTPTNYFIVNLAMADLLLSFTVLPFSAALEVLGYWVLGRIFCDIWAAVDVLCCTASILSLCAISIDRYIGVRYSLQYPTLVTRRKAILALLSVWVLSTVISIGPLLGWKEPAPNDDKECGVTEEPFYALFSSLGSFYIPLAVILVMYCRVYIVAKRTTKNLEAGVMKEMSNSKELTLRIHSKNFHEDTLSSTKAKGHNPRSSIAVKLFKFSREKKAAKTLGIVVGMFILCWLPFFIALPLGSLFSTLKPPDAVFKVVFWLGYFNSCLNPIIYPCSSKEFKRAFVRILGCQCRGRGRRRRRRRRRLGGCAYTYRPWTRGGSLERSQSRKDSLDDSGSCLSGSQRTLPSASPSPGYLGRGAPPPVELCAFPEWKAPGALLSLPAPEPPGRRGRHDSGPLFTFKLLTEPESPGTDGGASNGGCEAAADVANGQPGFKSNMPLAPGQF
UniProt Q92769, sequence (whole entry, looked up): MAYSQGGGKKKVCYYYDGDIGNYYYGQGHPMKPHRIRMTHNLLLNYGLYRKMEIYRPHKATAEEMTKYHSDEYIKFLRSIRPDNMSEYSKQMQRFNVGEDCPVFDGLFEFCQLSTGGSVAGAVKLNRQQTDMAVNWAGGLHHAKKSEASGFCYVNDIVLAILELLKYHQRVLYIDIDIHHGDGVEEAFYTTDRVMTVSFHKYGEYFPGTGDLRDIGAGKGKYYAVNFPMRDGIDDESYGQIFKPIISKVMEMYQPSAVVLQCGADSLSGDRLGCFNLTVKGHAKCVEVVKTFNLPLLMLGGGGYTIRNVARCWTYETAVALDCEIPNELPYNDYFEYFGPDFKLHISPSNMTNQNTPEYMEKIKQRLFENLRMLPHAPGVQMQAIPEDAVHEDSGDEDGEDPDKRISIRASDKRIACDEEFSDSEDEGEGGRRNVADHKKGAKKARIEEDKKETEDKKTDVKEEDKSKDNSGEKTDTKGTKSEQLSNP
UniProt P47746, sequence (whole entry, looked up): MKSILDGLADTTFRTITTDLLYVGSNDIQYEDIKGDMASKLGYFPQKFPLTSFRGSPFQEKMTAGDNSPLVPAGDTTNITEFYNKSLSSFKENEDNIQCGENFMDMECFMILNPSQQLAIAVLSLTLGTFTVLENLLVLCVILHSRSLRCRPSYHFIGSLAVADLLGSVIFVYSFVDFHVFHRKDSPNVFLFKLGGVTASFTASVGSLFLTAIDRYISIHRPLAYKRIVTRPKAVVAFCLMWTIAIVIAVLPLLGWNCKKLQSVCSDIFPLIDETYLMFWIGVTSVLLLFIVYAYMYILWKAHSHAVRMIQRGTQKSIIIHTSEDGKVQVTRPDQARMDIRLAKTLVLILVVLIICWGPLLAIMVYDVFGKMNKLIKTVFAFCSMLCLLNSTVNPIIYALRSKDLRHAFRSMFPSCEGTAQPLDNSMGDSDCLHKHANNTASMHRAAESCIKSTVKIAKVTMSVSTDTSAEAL

Compound | target | test | system | conditions | Ki
OB(O)c1ccc(OCc2ccccc2)nc1F | Chymotrypsinogen A | enzyme activity, inhibitor, absorbance |  |  | 167 µM
CCC1(CC)CC(=O)N(C2c3cc(C(=O)NC4c5ccccc5CC4O)ccc3OC2(C)COC)C(=N)N1 (stereo not drawn) | Plasmepsin X (Plasmodium vivax, UniProt A5KAC3) | enzyme activity, inhibitor, peptide cleavage |  |  | 2.9e-05 µM and 3e-05 µM
COc1cc2c(cc1OC)-c1cc3ccc(OC)c(OC)c3c[n+]1CC2.[Cl][Fe-]([Cl])([Cl])[Cl] | lipase | inhibitor |  |  | 180 µM
Cn1ccc2c(N3CCN(CCCCOc4ccc5c(c4)NC(=O)CC5)CC3)cccc21 | ADRA1B (Homo sapiens, UniProt P35368) | ligand displacement, radioligand |  |  | 1.08 µM
CC(C)Oc1ccc(B(O)O)c(F)n1 | Chymotrypsinogen A | enzyme activity, inhibitor, absorbance |  |  | 1010 µM
O=C(/C=C/c1cccc(OS(=O)(=O)Oc2ccc(Br)cc2)c1)NO | HDAC2 (Homo sapiens, UniProt Q92769) | enzyme activity, inhibitor, fluorescence |  |  | 0.047 µM
COC(=O)c1ccc(/N=N/c2cccc([B-](F)(F)F)c2)cc1 | Chymotrypsinogen A | enzyme activity, inhibitor |  | pH 7.81, 25 °C, cis-enriched photostationary state, added: Suc-AAPF-AMC | 1220 µM
CC(=O)OCC1=C2C(C)=CC(C)=[N+]2[B-](C)(C)n2c(C)cc(C)c21 | Cathepsin B (CTSB, Homo sapiens, UniProt P07858) | irreversible inactivation, inhibitor |  | concentration not given, pH 5.5, 25 °C, in dark, added: Z-Arg-Arg-AMC | 1400 ± 500000 µM
F[B-](F)(F)c1ccccc1/N=N/c1ccccc1 | Chymotrypsinogen A | enzyme activity, competitive inhibitor | buffer with 2 vol% DMSO | pH 7.81, 25 °C, thermally adapted trans state, added: Suc-AAPF-AMC | 29.2 µM
CC(C)(C)N1Cc2cccc(n2)CN(C(C)(C)C)Cc2cc(-c3nc4ccccc4s3)cc(n2)C1.[Cu+] | Amyloid-beta precursor protein, Aβ42 fibrils (APP, Homo sapiens, UniProt P05067) | amyloid-beta 42 binding, thioflavin T competition |  | pH 7.4 | 0.73 ± 0.06 µM
Cc1ccc([B-](F)(F)F)cc1/N=N/c1ccccc1 | Chymotrypsinogen A | enzyme activity, inhibitor |  | pH 7.81, 25 °C, cis-enriched photostationary state, added: Suc-AAPF-AMC | 23.5 µM
CCOC(=O)[C@@](CC)(CCCSCCOCCOCCN)NC(=O)c1ccc(C2CC2)c(Cc2ccc(F)cc2)n1 | Cnr1 (Mus musculus, UniProt P47746) | ligand displacement, radioligand |  | cell membranes | 0.163 µM

For quick reference, copied from above:
Compound | target | test | system | conditions | Ki
COc1cc2c(cc1OC)-c1cc3ccc(OC)c(OC)c3c[n+]1CC2.[Cl][Fe-]([Cl])([Cl])[Cl] | lipase | inhibitor |  |  | 180 µM
